Published values pooled from the literature.
Numbered parts are unrelated; each lists some results of a single study.

Sample 1
Target: Histone acetyltransferase KAT6A, both winged helices, GST fusion (KAT6A, Homo sapiens, UniProt Q92794, residues 1-181)
Method: protein binding microarray
Molecule type: double-stranded DNA, one strand shown
Sample: in vitro
Tested at: not given
Notes: 8-mer, flanks averaged, mean of 2 arrays, mostly near background
Reference: not given
Reading: higher = stronger binding
Construct (chain): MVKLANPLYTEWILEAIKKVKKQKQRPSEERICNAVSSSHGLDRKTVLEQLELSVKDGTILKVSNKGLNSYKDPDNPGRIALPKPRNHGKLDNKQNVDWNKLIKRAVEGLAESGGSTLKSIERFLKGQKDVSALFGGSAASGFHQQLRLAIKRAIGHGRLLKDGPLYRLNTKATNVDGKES
| Sequence | E-score |
| --- | --- |
| AATTTATC | 0.0584 |
| AAAGACGG | 0.109 |
| ACACGGAG | 0.258 |
| AAACGTTA | 0.059 |
| TTAATGAA | -0.137 |
| CAAATTTG | -0.00086 |
| CGTGCACG | 0.129 |
| CACGCATA | 0.0993 |
| AAAATGGG | -0.0946 |
| AGGCCAAG | -0.249 |
| ATATCGGG | 0.073 |
| ACCATAGC | -0.0681 |
| GGTTACCA | 0.0837 |
| AACAGTTA | 0.0467 |
| CGCGTCAC | 0.245 |
| ACAACATG | -0.0171 |
| TCCAACAA | -0.182 |
| GCGCTAGA | 0.278 |
| GTTGGCTA | 0.0241 |
| CCCCTACC | -0.17 |
| AGAGGTTC | 0.123 |
| CATGACTC | -0.0973 |
| ATCGTTTC | -0.0581 |

Sample 2
Target: RING finger protein unkempt homolog, zinc fingers 1-6, SBP tag (UNK, Homo sapiens, UniProt Q9C0B0, residues 30-357)
Chain of UniProt Q9C0B0 (30-357, looked up): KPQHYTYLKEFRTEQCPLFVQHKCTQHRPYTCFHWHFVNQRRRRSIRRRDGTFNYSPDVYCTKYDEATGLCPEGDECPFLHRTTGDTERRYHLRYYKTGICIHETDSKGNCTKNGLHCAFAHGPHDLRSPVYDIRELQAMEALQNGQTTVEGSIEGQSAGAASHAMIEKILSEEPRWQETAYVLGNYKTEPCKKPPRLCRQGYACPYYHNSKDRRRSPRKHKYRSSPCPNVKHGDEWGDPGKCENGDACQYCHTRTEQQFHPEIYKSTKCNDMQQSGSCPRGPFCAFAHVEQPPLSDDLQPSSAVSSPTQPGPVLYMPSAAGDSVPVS
Method: RNA Bind-n-Seq
Molecule type: RNA
Sample: in vitro
Tested at: 100 nM
Notes: RNA with constant flanks, vertebrate orthologous sites, ends assumed
Reference: input RNA pool
Reading: higher = stronger binding
All sequences stand within: GGGAGUUCUACAGUCCGACGAUC … CAACAGAGGAUUGAGCAUCA
| Sequence | bound/input enrichment [ratio] |
| --- | --- |
| GUGUUUUGGUACUACUCGAUGUACCAAUACUCAUCCUUUUUUCAUUAUACCAACUGUCGCUAGAAGUAGGAGUUUAAUAUUUUUAAAAAUUUUACAUUGCUGUAUAUUCAAAAUUUUAAA | 0.823 |
| GAGCUAAAGGAGUUAGCAUCUUUAUUUUUGUAUUAAAGAUAAAGGUUAUUUUGGAAUUAUUAGGAUUUUUACACAACUCCAAAAUCUGUUGCUUUUGUAAACAAAGUGUUUGAUCUAGGU | 0.643 |
| CAAUUCAAUGGUCGAGGGUUCCGAACUCAAAAAGGUUCGCUCCAACUCCAGGAUUUACCAUAGGUACUUUUUACUGGAUGCUGACAUGCAGAGCCUGAGGUGGGAACCAUCUAAGAAGGA | 0.152 |
| GGAGAUAAUGAAUAUUAAAGAAACAUUCUCGUCUUCCUUUACCUUUUGUCCCCUUAUACCUAGUCUACUUUUUAAAUUUUCAGACUUCACUGCUUUUUGAAUUCAUAAUUCUAAUUUUCA | 1.66 |
| AUUAAAUGUAUAUCAAAUGCUGGAUGUCACAUUACACCAUCAUUUAGAAUAGAUGUUAAUUUGUUAUAGUUAAGCUACAAAUAGGUUUCCUUAAACCGGAGAUGCACUCCUCUCGUCUCA | 0.971 |
| CUCUACGGGCCUCGCAGAGUUGAAAUAAUGGAAGAGGAAAGUGAACAGUAAUCUUCAGUUUAGUAUUUAUGCCUAGGUGUGAAAUGUUUUUUGUUGAUCAUUUCUAUAAUCCAGAGCUUU | 1.41 |
| AUAUCUUGGUUUAGGGUAGAGGGGAGGGAGGGGCAGGACUGUGGAAUCUCUAAGGUGUAUCGGUAGACAAGUGGGCCUUUAUGUUAAAAACCUCUGGGGGCCUCUGUUUUGGGGGUGAAG | 0.976 |
| UUACAGUCAUUGAUGGACUCUAUUUUUUUAUUAUUACUUGGACCUUGGUCGUUUUUAUACUAGCAAUGAAAAAUGUCUUGUUUUAAUUUGUUUUUUUUUUUUCGGGGGGGGGUACGGGGU | 3.15 |
| UUCAGGCACAACUGACUGGUUCACAGCACUCCUUACAUAGUUAUCUAUCAAAUUCAAGUGUAGCUAAUUUUCAGGAAACAACCAGGCAGUCAUCUUUAUCCUGUAGCCCAAUUGGAGAUU | 1.67 |
| CCUCCUGAACUUCUCUUGCUUUCAAGCUGUGGCUGUUUCAGAUACUGGUUUUAUUUUCUUUGCAGUUUUCCCCUGUCCCACCUUUCUCCCCUUCUUUCCAAGGUUUGACUCAUGGAUUGU | 1.16 |
| CAGUGCCCUGGGCCGGGACAGAUUUUUUUUUAACGUCUUGAAACUUAAACUCUGUGCUUGUAGGAUACUGUAACCUUUUUGUCUUUUUUUUUUUUUUUUUUUUUUUAAACCUCCACCUCC | 3.08 |

Sample 3
Target: Ras GTPase-activating protein-binding protein 1, RRM domain (G3BP1, Homo sapiens, UniProt Q13283)
Chain of UniProt Q13283 (whole entry, looked up): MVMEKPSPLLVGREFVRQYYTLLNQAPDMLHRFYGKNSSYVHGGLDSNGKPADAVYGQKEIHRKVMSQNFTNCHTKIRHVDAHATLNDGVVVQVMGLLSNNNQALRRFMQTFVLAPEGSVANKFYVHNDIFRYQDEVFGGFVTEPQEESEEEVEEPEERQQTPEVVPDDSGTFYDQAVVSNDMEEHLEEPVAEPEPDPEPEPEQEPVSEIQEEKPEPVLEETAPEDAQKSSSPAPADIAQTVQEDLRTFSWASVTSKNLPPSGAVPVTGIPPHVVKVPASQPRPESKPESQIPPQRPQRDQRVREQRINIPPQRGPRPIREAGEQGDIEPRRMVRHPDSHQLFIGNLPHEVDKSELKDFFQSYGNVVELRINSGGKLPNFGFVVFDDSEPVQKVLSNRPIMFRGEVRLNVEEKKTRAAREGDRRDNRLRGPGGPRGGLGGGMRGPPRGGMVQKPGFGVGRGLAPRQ
Method: RNA Bind-n-Seq
Molecule type: RNA
Sample: in vitro
Tested at: 1 µM
Notes: whole 134-nt RNA, ends assumed
With: 150 mM KCl
Reference: input library
Reading: higher = stronger binding
All sequences stand within: GGGAGUUCUACAGUCCGACGAUC … UGGAAUUCUCGGGUGUCAAGG
| Sequence | log2 enrichment |
| --- | --- |
| ACCAUGCAGGUGGGCAUCUUUGGGAAGUGGGGCACGGGGGGGAUAGGGAGGGGGGUAACACUUUGGGAACAGGUGGUCCCAGGUCGUUUC | -0.491 |
| UAACUUUAGAGGAGGAUCUGAUGGAUAUGGCAGUGGACGUGGAUUUGGGGAUGGCUAUAAUGGGUAUGGAGGAGGACCUAGAGGUGGCAA | -0.481 |
| AGUCCUGUGCUACACAUCGUAUGUACCGAAUCGGUUUUUGGGUUUUUGGGUUUUUGGAAAGUAUUAUGUUACGCCGUUCGGAUCUGCACU | -0.0975 |
| UAACUUUAGAGGAGGAUCUGAUGGAGAUGGCAGUGGACGUGGAUUUGGGGAUGGCUAUAAUGGGUAUGGAGGAGGACCUGGAGGUGGCAA | -0.408 |
| UGGACCCGGAGCUGAUGCAGAAGUUCAGCUGCCUGGGCACCACCGACAAGGACGUGCUCAUCUCCGAGUUCCAGAGGCUGCUCGGCUUCC | 0.0407 |
| UAACUUUAGAGGAGGAUCUGAUGGAUAUGGCAGUGGACCUGGAUUUGGGGAUGGCUAUAAUGGGUAUGGAGGAGGACCUGGAGGUGGCAA | -0.641 |
| CUGUGCUACACAUCGUAUGUACCGAAUCGGGGAAAAAAAGGAAAAAAAGGGGAAAAAAAGGGAAAGUAUUAUGUUACGCCGUUCGGAUCU | 0.21 |
| UGUUGGAGGGACGAUGGUCCGCUCCGGGCAGGACCCUUACGCCCGCAACAAGUUCAACCAGGUGGAGAGUGAUAAGCUUCGAAUGGACAG | -0.425 |
| AAGUCCUGUGCUACACAUCGUAUGUACCGAAUCGGGUUUGGGUGGGUUUUUUUGGGAAAGUAUUAUGUUACGCCGUUCGGAUCUGCACUU | 0.475 |
| GUCCUGUGCUACACAUCGUAUGUACCGAAUCAAAUUUUUAAACCCAAAUUUUUUUAAAAAAGUAUUAUGUUACGCCGUUCGGAUCUGCAC | -0.597 |
| CCUCAAGUCCUGUGCUACACAUCGUAUGUACCGAAUCGGGUGGGGUGGUGGGAAAGUAUUAUGUUACGCCGUUCGGAUCUGCACUUCCAG | 0.134 |
| GUCCUGUGCUACACAUCGUAUGUACCGAAUCGGGGUUUUUGGGUUUUUGGGGUUUUUGGAAAGUAUUAUGUUACGCCGUUCGGAUCUGCA | -0.261 |
| CAAGUCCUGUGCUACACAUCGUAUGUACCGAAUCGGGAAAGGAAAGGGAAAGGGGAAAGUAUUAUGUUACGCCGUUCGGAUCUGCACUUC | -0.0313 |
| GUCCUGUGCUACACAUCGUAUGUACCGAAUCAAAUUUAAACCCCCAAAUUUUUUUAAAAAAGUAUUAUGUUACGCCGUUCGGAUCUGCAC | -0.375 |

Sample 4
Target: Interferon regulatory factor 7, full length, phosphomimetic (IRF7, Homo sapiens, UniProt Q92985, residues 1-503, S101K/S471D/S472D/S475D/S476D/S477D/S483D/S484D/S487D)
Method: protein-binding microarray
Molecule type: double-stranded DNA, one strand shown
Sample: in vitro
Tested at: 250 nM
Notes: 60-bp whole probe
With: salmon DNA 0.4 mg/ml
Reference: random background probes
Reading: higher = stronger binding
All sequences stand within: GCCTAGCAC … GTCTTGATTCGCTTGACGCTGCTG
Residues (chain): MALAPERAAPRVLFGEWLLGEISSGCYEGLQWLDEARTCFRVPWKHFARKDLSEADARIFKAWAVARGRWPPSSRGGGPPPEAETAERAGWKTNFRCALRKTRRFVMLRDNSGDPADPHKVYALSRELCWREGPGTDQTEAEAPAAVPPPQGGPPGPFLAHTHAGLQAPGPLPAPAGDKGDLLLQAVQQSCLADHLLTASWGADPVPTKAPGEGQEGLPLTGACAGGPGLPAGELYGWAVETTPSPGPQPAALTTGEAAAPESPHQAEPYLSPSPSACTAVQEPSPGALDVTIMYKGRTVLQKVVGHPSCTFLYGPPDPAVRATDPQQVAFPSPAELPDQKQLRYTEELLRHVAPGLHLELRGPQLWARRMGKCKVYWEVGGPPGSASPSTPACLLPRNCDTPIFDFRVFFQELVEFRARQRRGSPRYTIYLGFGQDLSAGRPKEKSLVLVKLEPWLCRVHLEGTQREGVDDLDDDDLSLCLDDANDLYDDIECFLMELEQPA
| Sequence | log fluorescence [z-score] |
| --- | --- |
| GGCGATATCGGGACTGGAGACGTGCTA | -0.649 |
| ATAGGTATCGACTTTCGGTTAGTGCTA | 3.12 |
| CAGGGGCTGCCTGGATGCCGGTGCTAG | -1.63 |
| TTAGAACTGAGACCGGATTAGTGCTAG | 0.299 |
| GACGGTTTTCTTCTCCTGACGTGCTAG | 1.47 |
| CTCATTTTCATTTTGTGTCTGTGCTAG | 2.74 |
| GACGGTTTCTTTTCCCTGACGTGCTAG | 4.57 |
| GACGATTTCGGGCTTCGAGACGTGCTA | 0.258 |
| TTATGTCTCGGACTGGGTTAGTGCTAG | 0.345 |
| TTAGGTATCCTTATCCGTTAGTGCTAG | 0.304 |
| TTAGGTTTCGGACTGGGCTAGTGCTAG | 3.42 |
| TCATAAACCATTTTGGTACTGTGCTAG | 0.167 |
| TTAGGACTGCTCCTGCTTTAGTGCTAG | -0.586 |
| AGACCTTCACCTCTCTGTCCGTGCTAG | 0.0439 |
| TTAGATCTCAGTTTCGATTAGTGCTAG | 8.19 |
| GATGGTATCGACACTGGGGACGTGCTA | -0.335 |
